Published values from different studies.
Lines come from different studies, so protocols differ. “And” joins repeats or separate records; there may be more than shown. Numbers after ± are the reported error.

Cc1n[nH]c(C)c1CCCOc1cc(C(=O)NCCCCC(NC(=O)CN2CCN(CC(=O)[O-])CCN(CC(=O)[O-])CCN(CC(=O)[O-])CC2)C(=O)NCC2CCC(C(=O)NC(Cc3ccc4ccccc4c3)C(=O)NCCCCC(NC(=O)NC(CCC(=O)O)C(=O)O)C(=O)O)CC2)ccc1F.[177Lu+3] (stereo not shown)  uptake (22Rv1; 24 h; reference: added dose): 8.63 ± 0.18%
O=S(=O)(N[C@H]1CCO[C@@H](C2c3ccc(F)cc3CCc3cc(F)ccc32)C1)c1ccc(OC(F)(F)F)cc1  total PARP level (D425; immunoblot; concentration not given, 24 h): decreased
CCCCCCc1cccc([C@H](O)C[C@H](CO)NC(=O)CCCCCOc2ccc3ccccc3c2)c1  ceramide level (HeLa; CERT activity, HPLC-MS/MS lipidomics, refers to: ceramide 24:1; 1 µM, 24 h, not cell-number normalised): 10700 pmol/sample and 18700 pmol/sample and 18500 pmol/sample
O=C(C[Se]C(=O)c1cc2ccccc2o1)Nc1cccc(C(F)(F)F)c1  TGI (NCI60 NSCLC subpanel mean; cell growth): 3.09 µM
Cn1ncc2cc(-c3cncc(Cl)c3N3CCC4(CCNC4=O)CC3)ccc21  log2 fold change (LS174T; gene expression, microarray, refers to: PDE4D mRNA; concentration not given, 24 h; reference: untreated cells): 2.33
CNS(=O)(=O)Nc1nccc(Cc2c(C)c3ccc(Oc4ncccc4F)cc3oc2=O)c1F  IC50 (P116; cell viability, CellTiter-Glo; 7 days): > 1 µM
CCC(=CCc1c(O)cc2c(c1O)C(=O)CC(c1ccccc1O)O2)CC (stereo not shown)  inhibition (HeLa; cell growth or viability, MTT; 7.5 µM, 48 h): 5.13%
CCCCCCCCCCCCCCCC(=O)OCC(CSC[C@H](N)C(=O)N[C@@H](CO)C(=O)N[C@@H](CCCCN)C(=O)N[C@@H](CCCCN)C(=O)N[C@@H](CCCCN)C(=O)N[C@@H](CCCCN)C(=O)NCCCCCC(=O)N[C@@H](CCCCN)C(=O)N[C@@H](CC(C)C)C(=O)N[C@H](C(=O)N[C@@H](Cc1ccccc1)C(=O)N[C@@H](Cc1ccccc1)C(=O)N[C@@H](Cc1ccc2ccccc2c1)C(=O)O)C(C)C)OC(=O)CCCCCCCCCCCCCCC (stereo partly shown)  NLRP3 protein level (BV-2; Western blot, refers to: NLRP3 over tubulin; concentration not given, unit not given; reference: control): 2.06
CN(C)CCN1CCN(c2ccc3nc(-c4ccc5nc(-c6ccc(C(F)(F)F)cc6)[nH]c5c4)[nH]c3c2)CC1  growth percent (OVCAR-8; SRB; 10 µM, 48 h): 53%
Cc1ncsc1-c1ccc(C(C)NC(=O)C2CC(O)CN2C(=O)C(NC(=O)CCCCCCCCCCN2CCCC(Nc3ncc(Cl)c(Nc4ccccc4S(=O)(=O)C(C)C)n3)C2)C(C)(C)C)cc1 (stereo not shown)  log2 fold change (22Rv1; RNA-seq, refers to: RAP2B mRNA; concentration not given; reference: DMSO): -1.38
CN1CCCNC(=O)c2cccc(c2)C(=O)NCCCN(C)CCCNc2cccc3c2C(=O)c2cccc(c2C3=O)NCCC1  log2 fold change (SAS; RNA-Seq, refers to: YTHDC1 mRNA; 1 µM, 6 h; reference: untreated cells): 0.571
N#C[C@@H]1CC(F)(F)CN1C(=O)CNC(=O)c1ccnc2ccc(OCCCN3CCN(C(=O)CCc4ccc5c(c4)CN4CCN(Cc6cc(CCC(=O)O)ccc6O)CC(=O)[O][Al-]([18F])([O]C(=O)C4)[O]5)CC3)cc12 (stereo partly shown)  internalized fraction (HT1080 cells expressing human FAP; 120 min, 37 °C): 84 ± 0.6%
CCCC[C@H](NC(C)=O)C(=O)N[C@@H](CCC(=O)O)C(=O)N[C@@H](CO)C(=O)N[C@@H](CC(=O)O)C(=O)COC(=O)c1c(C)cccc1C  cell lysis (THP-1 cells, LPS-primed; pyroptosis, LDH release; 25 µM, LPS 1 µg/mL, 4 h, together with: nigericin 5 µM, 2 h): 34.2%
O=c1cc(Nc2ccccc2)c2ccccc2o1  calcium mobilisation signal (COS-7 (untransfected); 500 µM, unit not given; reference: 3 µM ionomycin): 2.46 ± 0.63
CN(C)CCCS(=O)(=O)NC12CCCC(C)(CCC3C1CC3(C)C)C2 (stereo not shown)  inhibition (HT-29; cell growth or viability, CCK-8; 10 µM): 78%
COc1ccc(C2CC(=O)c3c(cc(O)c(CC=C(C)C)c3O)O2)cc1 (stereo not shown)  inhibition (HeLa; cell growth or viability, MTT; 12.5 µM, 48 h): 16.4%
COc1cc(N2CCN(C(=O)CN)CC2)ccc1Nc1ncc(Cl)c(Nc2ccccc2P(C)(C)=O)n1  viability (NCI-H3122; CCK-8; 2.5 nM, 48 h): 95%
COc1ccc(COC[C@](O)(CNCc2ccc(F)cc2)[C@@H]2CC[C@@H](C)C[C@H]2OCc2ccc(OC)cc2)cc1  inhibition (A2780; cell growth or viability, MTT; 10 µM, 72 h): 93.9%
CCOC(=O)c1cn(C23CCCC(C)(CCC4C2CC4(C)C)C3)nn1 (stereo not shown)  inhibition (HT-29; cell growth or viability, CCK-8; 10 µM): < 50%

Excerpt of the above:
O=S(=O)(N[C@H]1CCO[C@@H](C2c3ccc(F)cc3CCc3cc(F)ccc32)C1)c1ccc(OC(F)(F)F)cc1  total PARP level (D425; immunoblot; concentration not given, 24 h): decreased
CCCCCCc1cccc([C@H](O)C[C@H](CO)NC(=O)CCCCCOc2ccc3ccccc3c2)c1  ceramide level (HeLa; CERT activity, HPLC-MS/MS lipidomics, refers to: ceramide 24:1; 1 µM, 24 h, not cell-number normalised): 10700 pmol/sample and 18700 pmol/sample and 18500 pmol/sample
COc1ccc(COC[C@](O)(CNCc2ccc(F)cc2)[C@@H]2CC[C@@H](C)C[C@H]2OCc2ccc(OC)cc2)cc1  inhibition (A2780; cell growth or viability, MTT; 10 µM, 72 h): 93.9%
